# Measurements gathered from unrelated publications.
# Each numbered part is a random draw from the data of one study; scales do not carry over between parts. Substitutions count along the parent as printed.

# Block 1
# Target: CCNF, cyclin fold, Cln2 fusion (human)
# Technique: yeast growth competition, sequencing
# Matrix: yeast
# Setting: strong parent motif
# Reference: not given
# Reading: higher = stronger binding
# Parent: E2F1 docking peptide (human); PPVKRRLDLETDH
Change,normalised enrichment score
P2G,6.76
H13R,5.89
D8Q,7.47
R6M,4.05
K4Q,6.3
H13V,7.79
P2N,6.21
D8C,6.81
P1V,5.48
E10N,7.04
R5F,-0.407
L7H,-0.288
R5L,-0.562
P1L,6.41
L7V,0.0938

# Block 2
# Target: Microphthalmia-associated transcription factor, full length (MITF, Homo sapiens, UniProt O75030-10, residues 1-413)
# Technique: protein-binding microarray
# Form: double-stranded DNA, one strand shown
# Matrix: in vitro
# Tested at: not given
# Setting: k-mer, scored over probes, only values ≥0.25
# Reading: higher = stronger binding
Strand,E-score
ATGATCA,0.269
CACGTGC,0.491
ATGTCAC,0.365
AACATGA,0.293
CTCGTGA,0.484
GCGTGTA,0.251
CATGTGA,0.483
GTGACCA,0.376
CAACATG,0.271
AGTCACA,0.333
CATGAGG,0.34
ACCCCAC,0.371
GTCATGA,0.378
ACCCCGT,0.295
CATGACC,0.417
ATCACGC,0.432

# Block 3
# Target: RNA binding protein fox-1 homolog 2, RRM domain, GST-SBP tag (RBFOX2, Homo sapiens, UniProt O43251-10, residues 100-194)
# Technique: RNA Bind-n-Seq
# Form: RNA
# Matrix: in vitro
# Tested at: 365 nM
# Setting: natural RNA segment, single round, ends assumed
# Reference: no-protein control
# Reading: higher = stronger binding
# All sequences stand within: GGGAGUUCUACAGUCCGACGAUC … UGGAAUUCUCGGGUGCCAA
# Construct (chain): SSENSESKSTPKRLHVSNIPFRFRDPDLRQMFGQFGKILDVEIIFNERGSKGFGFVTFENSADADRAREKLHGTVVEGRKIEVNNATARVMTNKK
Strand,RBNS enrichment (R)
CUGGGUCCCAGCGAAAGAAAAGCUUGAAGACGGAUGUUGUUCUUUCUUUUUUCCAUGGUCUCAUCUCUUGCCCUGUUGUGGAGUCUGUCUUCGGUGUCCUCCACACUGAC,0.494
CAUCCAUCUGCUUCUCCAUUCCCUGUCUUUUAAGUCCAGCACAUUGGGAGACAAACUAAGCAAAUCUGGGAUGGGGGCAGUCUGACCUUCUUCCUGCUUCGGUGAUCCGA,0.313
CCCCCUCAUGGUCGUCUGGGGGACAGAGGUGGUCUGUGUUUACAAGGGCAGUCAAGUCCAGUCACCCAUAUUACUCAUCAAUGUUAGACGAAGCCUUGAGCUGAAGGAGG,0.619
GAGCUUGAGCACCAUGACAUAGGCCUCGACCAUGAUGCAGAAUUGGCUCCAGCCUAUGCCGUCCUGAAGAGCAUUAUCCAGGCCGGAUGCAGAGUGGCGAUAUAUUUAUC,3.69
UAAGAUAAUUCUCACGUUCACACCUGGUGGCAGGCUUCACUGUAGGGACGGACAUUGCAGUUACACCACGAUUCCUUCCUCUUCACUGGCUCGAGGUAAACCCUUUUCAA,0.531
UGGGUGAUUAUGAUUGACACUCACCUGCCCUGGAAAGCCAGGGUGUGAGAUGGGUGUCUGGGAGUGGUGCCAUGGAAGUGGCGAUUCUGCUUCUUAUAAAUACCUCCAAA,0.24
CCUCUCCCAACUAUAAAACUAGGUGCUGCAGCCCCUGGGACCAGGCACCCCCAGAAUGACCUGGCCGCAGUGAGGCGGAUUGAGAAGGAGCUCCCAGGAGGGGCUUCUGG,0.554
AGCAAAAAGGAGCCCACAUUUAGUCCCUCGUGCAGGGUACAAGCAGGACCACCCUCAGGAUGGUGCAGAACCCAGAAUUGUGAUUGCAGCAUGUACUGUCCUGUAGGAAA,6.07
GGCGUUUUUUUGGAAAGCAUAAAUUGUGACAUCAGUUAUCAUGCUACUUCUUGGUGACAUAAUAUAACCUUUGAAGUUAAUAUGAAGUGAUGUUUGCUCCAUAAACUCCA,0.358
GGGAAUUGUGUAUAGCUGAUUUUUUGUGGGAAACUGUUUACUUCAUUCAAAGGUUCUUGAGACUCUUGAUAUUUCUGUCUUCUCCUUGUGCUUUCCUAUGGAAAAAAUAC,0.747
AUUUACUUUCCCAGGAGGUGGGUUUCUUCAGGUGUUUGUUUAAAGAGGGCUGUCACAGGUGAAUGGUUUGGGGAACCCUUCUUGGCAGAGUUUUAGCUGCCUUACUGAAC,1.69
AUCUGGUGCUGGGGGCAGCCGGUGCAGCCCCGGGGAGCCCUGGCCUGGUGACCUCGCCGCUCUUCUUGAAUCAUGCUGGGCUGCCCCUGCUCAGCACCCCGCCUGGUGUG,0.258

# Block 4
# Target: Histone acetyltransferase KAT6A, both winged helices, GST fusion (KAT6A, Homo sapiens, UniProt Q92794, residues 1-181)
# Technique: protein binding microarray
# Form: double-stranded DNA, one strand shown
# Matrix: in vitro
# Tested at: not given
# Setting: 8-mer, flanks averaged, mean of 2 arrays, mostly near background
# Reference: not given
# Reading: higher = stronger binding
# Construct (chain): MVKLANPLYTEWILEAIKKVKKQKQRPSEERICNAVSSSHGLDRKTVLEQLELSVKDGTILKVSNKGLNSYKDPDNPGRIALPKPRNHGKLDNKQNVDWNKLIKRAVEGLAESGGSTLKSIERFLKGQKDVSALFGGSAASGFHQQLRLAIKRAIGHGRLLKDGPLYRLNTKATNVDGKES
Strand,E-score
CGAAGGCG,0.162
GACTTACC,0.00239
ACCTTAAA,-0.106
CGCACAGC,0.267
AGGAGCCA,-0.222
GTAGTCGA,0.0438
ATCGCCGG,0.271
CAGCCCAG,-0.152
ACGGATTA,0.222
CCGCTCCA,0.15
ATATCGAT,-0.0575
AACTAACC,-0.0947
CACAAGTG,-0.075
GAATAGCC,-0.0459
CCGTATCA,0.225
CAATCTCC,-0.0432
TAGTACTA,-0.11
GGTCATCA,0.073
GTAGACAA,-0.1
GATCGTCC,0.122
CAAGGTCC,-0.12
AATAAACG,0.159

# Block 5
# Target: PABPC1L2, full length, GST fusion (mouse, UniProt A0ABA7IW68)
# Technique: RNAcompete
# Form: RNA
# Matrix: in vitro
# Tested at: 20 nM
# Setting: 7-mer, probes averaged, single round
# Reference: mean of 7-mers
# Reading: higher = stronger binding
# Target sequence (chain): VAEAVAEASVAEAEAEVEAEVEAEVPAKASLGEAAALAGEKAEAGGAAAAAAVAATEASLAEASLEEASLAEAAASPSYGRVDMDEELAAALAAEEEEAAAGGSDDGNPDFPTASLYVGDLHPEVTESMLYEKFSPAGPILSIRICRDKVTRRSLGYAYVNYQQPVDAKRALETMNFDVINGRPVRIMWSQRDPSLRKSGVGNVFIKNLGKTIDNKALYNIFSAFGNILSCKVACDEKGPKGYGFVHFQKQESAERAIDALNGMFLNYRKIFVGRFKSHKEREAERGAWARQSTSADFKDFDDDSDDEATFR
Strand,7-mer Z-score
AAGGCAC,0.378
CUGAACU,-0.226
CUCAGCC,-0.269
CAUGAUA,0.0859
CCUCUUG,-0.465
AUGAUCG,-0.15
AAUGGGU,0.229
UUCAUGC,-0.226
GCACAGA,0.0207
AAUUUGG,0.209
UAAUACC,-0.179
GCGUCGG,-0.32
GGCCGCG,-0.13
GAUGGGU,-0.0989
CCACGCA,-0.0844
GAUUAGG,0.0279

# Block 6
# Target: UBE2R2 UBC core domain (UniProt Q712K3)
# Technique: yeast two-hybrid
# Matrix: yeast
# Setting: mostly zero background
# Reference: not given
# Reading: higher = stronger interaction
# B1: TRIM8 RING domain (UniProt Q9BZR9); chain WKNCFEEELICPICLHVFVEPVQLPCKHNFCRGCIGEAWAKDSGLVRCPECNQAYNQKPGLE
# B2: IRF2BPL RING domain (UniProt Q9H1B7); chain SPMANSGPLCCTICHERLEDTHFVQCPSVPSHKFCFPCSRESIKAQGATGEVYCPSGEKCPLVGSNVP
# B3: CUL9 RING domain (UniProt Q8IWT3); chain AQAVPVRPDHCPVCVSPLGCDDDLPSLCCMHYCCKSCWNEYLTTRIEQNLVLNCTCPIADCPAQPTGAFIR
# B4: RC3H2 RING domain (UniProt Q9HBD1); chain QAAQWTEFLSCPICYNEFDENVHKPISLGCSHTVCKTCLNKLHRKACPFDQTAINTDIDVL
# B5: RNF170 RING domain (UniProt Q96K19); chain TRQQFYTDMYCPICLHQASFPVETNCGHLFCGACIIAYWRYGSWLGAISCPICRQTVTLLLTVF
# B6: TRIM69 RING domain (UniProt Q86WT6); chain VIQDITMELHCPLCNDWFRDPLMLSCGHNFCEACIQDFWRLQAKETFCPECKMLCQYNNCTF
# B7: PHF21A RING domain (UniProt Q96BD5); chain SPTSTDGDIHEDFCSVCRKSGQLLMCDTCSRVYHLDCLDPPLKTIPKGMWICPRCQDQMLKKEEAIPW
# B8: RNF25 RING domain (UniProt Q96BH1); chain LTDNNIPHGQCVICLYGFQEKEAFTKTPCYHYFHCHCLARYIQHMEQELKAQGQEQEQERQHATTKQKAVGVQCPVCREPLVYDLASL
# Target sequence (chain): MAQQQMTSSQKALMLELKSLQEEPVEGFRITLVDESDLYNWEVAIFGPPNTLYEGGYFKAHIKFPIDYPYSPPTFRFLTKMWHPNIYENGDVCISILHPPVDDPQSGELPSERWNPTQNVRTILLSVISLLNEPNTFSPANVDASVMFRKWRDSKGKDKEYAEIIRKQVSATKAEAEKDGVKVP
Molecule,lacZ reporter activity
B1 (TRIM8 RING domain),0
QLRRLQEERTCKVCMDKEVSVVFIPCGHLVVCQECAPSLRKCPICRGIIKGTVRTF (BIRC2 RING domain (UniProt Q13490)),0
KTLSRFGIQPCSICLGDAKDPVCLPCDHVHCLRCLRAWFASEQMICPYCLTALPDEFSPA (RNF213 RING domain (UniProt Q63HN8)),0
B2 (IRF2BPL RING domain),0
B3 (CUL9 RING domain),0
B4 (RC3H2 RING domain),0
B5 (RNF170 RING domain),0
QHHELTSLFECPVCFDYVLPPILQCQAGHLVCNQCRQKLSCCPTCRGALTPSIRNL (SIAH2 RING domain (UniProt O43255)),0
FPEHFVKSISCQICEHILADPVETNCKHVFCRVCILRCLKVMGSYCPSCRYPCFPTDLES (RAG1 RING domain (UniProt P15918)),0
B6 (TRIM69 RING domain),0
B7 (PHF21A RING domain),0
B8 (RNF25 RING domain),0

# A few entries again (block 6):
Molecule,lacZ reporter activity
B4 (RC3H2 RING domain),0
B7 (PHF21A RING domain),0
FPEHFVKSISCQICEHILADPVETNCKHVFCRVCILRCLKVMGSYCPSCRYPCFPTDLES (RAG1 RING domain (UniProt P15918)),0
B5 (RNF170 RING domain),0
QLRRLQEERTCKVCMDKEVSVVFIPCGHLVVCQECAPSLRKCPICRGIIKGTVRTF (BIRC2 RING domain (UniProt Q13490)),0
KTLSRFGIQPCSICLGDAKDPVCLPCDHVHCLRCLRAWFASEQMICPYCLTALPDEFSPA (RNF213 RING domain (UniProt Q63HN8)),0
B1 (TRIM8 RING domain),0
B8 (RNF25 RING domain),0
B6 (TRIM69 RING domain),0
QHHELTSLFECPVCFDYVLPPILQCQAGHLVCNQCRQKLSCCPTCRGALTPSIRNL (SIAH2 RING domain (UniProt O43255)),0
B3 (CUL9 RING domain),0
B2 (IRF2BPL RING domain),0
